# Results gathered from unrelated publications.
# Parts stem from different laboratories: compare values within a part only.
# Chain of UniProt P15056 (whole entry, unmodified, looked up): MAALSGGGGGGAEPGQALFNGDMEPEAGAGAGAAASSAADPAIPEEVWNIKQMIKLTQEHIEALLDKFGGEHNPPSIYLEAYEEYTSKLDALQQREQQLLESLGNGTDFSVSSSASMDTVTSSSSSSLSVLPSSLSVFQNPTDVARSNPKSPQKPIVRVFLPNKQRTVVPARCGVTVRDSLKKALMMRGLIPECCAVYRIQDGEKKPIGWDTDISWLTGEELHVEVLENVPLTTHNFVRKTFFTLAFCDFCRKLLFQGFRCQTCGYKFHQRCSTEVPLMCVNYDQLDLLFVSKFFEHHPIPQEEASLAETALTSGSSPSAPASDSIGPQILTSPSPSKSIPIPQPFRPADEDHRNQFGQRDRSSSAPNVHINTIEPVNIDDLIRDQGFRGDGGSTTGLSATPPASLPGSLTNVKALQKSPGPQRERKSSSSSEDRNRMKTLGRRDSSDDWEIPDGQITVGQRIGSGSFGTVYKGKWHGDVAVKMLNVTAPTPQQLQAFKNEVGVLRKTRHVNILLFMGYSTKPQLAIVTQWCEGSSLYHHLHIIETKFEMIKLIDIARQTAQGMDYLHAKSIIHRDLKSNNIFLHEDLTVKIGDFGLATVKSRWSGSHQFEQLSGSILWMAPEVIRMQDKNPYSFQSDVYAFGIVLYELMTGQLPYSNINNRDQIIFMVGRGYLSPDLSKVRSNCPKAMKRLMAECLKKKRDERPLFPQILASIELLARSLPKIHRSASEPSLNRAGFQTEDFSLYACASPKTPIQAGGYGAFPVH
# Chain of UniProt P49840 (whole entry, looked up): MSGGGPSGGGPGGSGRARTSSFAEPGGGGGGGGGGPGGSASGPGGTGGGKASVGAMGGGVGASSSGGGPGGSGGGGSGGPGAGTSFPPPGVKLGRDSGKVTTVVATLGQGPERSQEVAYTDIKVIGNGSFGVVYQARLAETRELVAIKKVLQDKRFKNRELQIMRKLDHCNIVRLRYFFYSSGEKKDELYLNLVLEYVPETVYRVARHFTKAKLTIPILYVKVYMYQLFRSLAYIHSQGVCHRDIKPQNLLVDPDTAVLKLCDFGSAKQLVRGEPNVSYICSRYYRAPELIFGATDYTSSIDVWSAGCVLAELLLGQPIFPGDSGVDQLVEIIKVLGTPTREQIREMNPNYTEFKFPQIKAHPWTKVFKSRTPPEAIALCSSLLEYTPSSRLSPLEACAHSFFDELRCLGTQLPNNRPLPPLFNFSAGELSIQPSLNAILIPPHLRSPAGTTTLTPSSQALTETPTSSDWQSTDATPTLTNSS
# Chain of UniProt Q16659 (whole entry, looked up): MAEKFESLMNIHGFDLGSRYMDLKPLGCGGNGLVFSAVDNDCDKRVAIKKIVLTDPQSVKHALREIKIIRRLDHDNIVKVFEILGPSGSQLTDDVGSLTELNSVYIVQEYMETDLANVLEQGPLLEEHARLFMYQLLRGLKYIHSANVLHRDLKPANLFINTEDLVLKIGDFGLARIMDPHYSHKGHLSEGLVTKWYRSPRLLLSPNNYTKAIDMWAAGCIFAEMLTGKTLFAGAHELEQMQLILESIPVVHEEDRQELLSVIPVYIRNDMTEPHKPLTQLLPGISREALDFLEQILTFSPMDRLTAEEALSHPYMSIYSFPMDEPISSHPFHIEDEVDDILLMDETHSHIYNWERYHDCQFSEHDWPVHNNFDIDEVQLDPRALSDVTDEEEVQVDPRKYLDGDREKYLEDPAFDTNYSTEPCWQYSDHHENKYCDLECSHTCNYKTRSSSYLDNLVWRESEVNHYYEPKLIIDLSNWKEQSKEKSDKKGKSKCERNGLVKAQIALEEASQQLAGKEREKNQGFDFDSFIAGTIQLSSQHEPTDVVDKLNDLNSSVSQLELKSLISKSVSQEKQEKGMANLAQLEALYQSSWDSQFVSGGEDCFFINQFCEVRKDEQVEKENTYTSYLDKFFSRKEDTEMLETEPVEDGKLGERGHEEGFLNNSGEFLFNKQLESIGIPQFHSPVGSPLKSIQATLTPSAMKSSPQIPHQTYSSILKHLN
# Chain of UniProt P07949 (whole entry, unmodified, looked up): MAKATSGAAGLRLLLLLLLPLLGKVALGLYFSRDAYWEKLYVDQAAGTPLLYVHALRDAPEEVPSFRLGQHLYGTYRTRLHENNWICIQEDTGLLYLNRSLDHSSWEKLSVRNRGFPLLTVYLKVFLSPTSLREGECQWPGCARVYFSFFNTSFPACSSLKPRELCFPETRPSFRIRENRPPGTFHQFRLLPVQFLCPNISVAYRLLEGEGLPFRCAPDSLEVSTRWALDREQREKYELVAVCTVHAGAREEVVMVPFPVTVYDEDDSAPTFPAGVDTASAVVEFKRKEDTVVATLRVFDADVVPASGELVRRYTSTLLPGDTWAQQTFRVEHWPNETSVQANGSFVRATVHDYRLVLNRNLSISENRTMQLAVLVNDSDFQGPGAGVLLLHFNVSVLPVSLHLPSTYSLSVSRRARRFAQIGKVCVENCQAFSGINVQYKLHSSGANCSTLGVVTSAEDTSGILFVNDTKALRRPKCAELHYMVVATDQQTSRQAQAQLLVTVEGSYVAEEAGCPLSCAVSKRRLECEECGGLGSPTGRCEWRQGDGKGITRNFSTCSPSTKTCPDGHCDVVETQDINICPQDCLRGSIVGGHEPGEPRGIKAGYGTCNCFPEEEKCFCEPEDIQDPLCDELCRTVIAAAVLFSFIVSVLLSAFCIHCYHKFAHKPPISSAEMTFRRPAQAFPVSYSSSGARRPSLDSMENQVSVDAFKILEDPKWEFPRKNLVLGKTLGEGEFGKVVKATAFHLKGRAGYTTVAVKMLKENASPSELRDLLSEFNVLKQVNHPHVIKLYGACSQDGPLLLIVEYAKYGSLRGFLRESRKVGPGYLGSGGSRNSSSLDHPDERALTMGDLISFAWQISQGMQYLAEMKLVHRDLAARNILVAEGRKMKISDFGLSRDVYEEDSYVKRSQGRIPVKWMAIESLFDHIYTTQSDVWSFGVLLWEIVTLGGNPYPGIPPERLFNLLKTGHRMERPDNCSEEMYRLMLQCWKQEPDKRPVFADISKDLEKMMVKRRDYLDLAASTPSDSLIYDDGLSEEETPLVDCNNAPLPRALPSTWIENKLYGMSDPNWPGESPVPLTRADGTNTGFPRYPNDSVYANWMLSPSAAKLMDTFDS
# Chain of UniProt Q9Y2H1 (whole entry, looked up): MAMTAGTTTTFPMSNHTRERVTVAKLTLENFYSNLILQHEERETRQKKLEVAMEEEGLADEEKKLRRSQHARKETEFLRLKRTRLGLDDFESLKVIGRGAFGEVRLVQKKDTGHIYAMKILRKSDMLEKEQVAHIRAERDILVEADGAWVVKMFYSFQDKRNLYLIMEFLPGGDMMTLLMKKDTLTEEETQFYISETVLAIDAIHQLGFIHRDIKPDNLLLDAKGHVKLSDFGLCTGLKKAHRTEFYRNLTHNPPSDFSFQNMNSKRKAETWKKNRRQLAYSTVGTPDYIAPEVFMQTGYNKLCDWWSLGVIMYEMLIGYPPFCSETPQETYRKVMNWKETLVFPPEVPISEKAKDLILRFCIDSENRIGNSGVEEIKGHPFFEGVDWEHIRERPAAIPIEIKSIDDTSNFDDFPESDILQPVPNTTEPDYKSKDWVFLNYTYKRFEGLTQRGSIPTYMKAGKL
# Chain of UniProt P54753 (whole entry, looked up): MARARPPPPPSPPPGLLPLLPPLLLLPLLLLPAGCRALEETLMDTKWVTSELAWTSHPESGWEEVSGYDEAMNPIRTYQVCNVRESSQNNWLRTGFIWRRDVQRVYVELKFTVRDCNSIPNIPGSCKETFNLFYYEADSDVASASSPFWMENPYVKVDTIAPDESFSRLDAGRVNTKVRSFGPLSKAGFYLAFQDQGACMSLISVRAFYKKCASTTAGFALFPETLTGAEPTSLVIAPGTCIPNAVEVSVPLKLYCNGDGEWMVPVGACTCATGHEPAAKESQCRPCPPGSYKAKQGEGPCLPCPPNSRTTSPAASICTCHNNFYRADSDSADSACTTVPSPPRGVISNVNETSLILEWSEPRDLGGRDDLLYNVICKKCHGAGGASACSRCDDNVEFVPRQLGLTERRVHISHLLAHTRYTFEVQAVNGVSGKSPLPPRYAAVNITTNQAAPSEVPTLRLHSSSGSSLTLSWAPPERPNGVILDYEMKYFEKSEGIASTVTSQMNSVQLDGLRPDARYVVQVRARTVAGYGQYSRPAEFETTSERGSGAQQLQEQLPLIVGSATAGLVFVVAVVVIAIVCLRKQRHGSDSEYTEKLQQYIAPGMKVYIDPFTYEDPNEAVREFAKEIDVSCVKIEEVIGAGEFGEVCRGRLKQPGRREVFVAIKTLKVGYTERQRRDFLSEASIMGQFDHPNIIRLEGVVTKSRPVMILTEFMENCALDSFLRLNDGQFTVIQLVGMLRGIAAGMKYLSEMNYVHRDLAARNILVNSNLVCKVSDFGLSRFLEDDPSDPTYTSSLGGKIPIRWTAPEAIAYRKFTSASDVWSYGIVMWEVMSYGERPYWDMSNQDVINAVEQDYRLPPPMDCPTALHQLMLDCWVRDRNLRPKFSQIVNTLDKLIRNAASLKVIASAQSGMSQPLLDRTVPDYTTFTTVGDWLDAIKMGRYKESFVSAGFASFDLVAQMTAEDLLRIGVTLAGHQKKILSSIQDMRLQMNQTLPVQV

# Block 1 — observed: enzyme activity; mode: inhibitor; tested at: 10 µM
# Target: Calcium/calmodulin-dependent protein kinase type II subunit alpha (CAMK2A, Homo sapiens, UniProt Q9UQM7)
# Chain of UniProt Q9UQM7 (whole entry, looked up): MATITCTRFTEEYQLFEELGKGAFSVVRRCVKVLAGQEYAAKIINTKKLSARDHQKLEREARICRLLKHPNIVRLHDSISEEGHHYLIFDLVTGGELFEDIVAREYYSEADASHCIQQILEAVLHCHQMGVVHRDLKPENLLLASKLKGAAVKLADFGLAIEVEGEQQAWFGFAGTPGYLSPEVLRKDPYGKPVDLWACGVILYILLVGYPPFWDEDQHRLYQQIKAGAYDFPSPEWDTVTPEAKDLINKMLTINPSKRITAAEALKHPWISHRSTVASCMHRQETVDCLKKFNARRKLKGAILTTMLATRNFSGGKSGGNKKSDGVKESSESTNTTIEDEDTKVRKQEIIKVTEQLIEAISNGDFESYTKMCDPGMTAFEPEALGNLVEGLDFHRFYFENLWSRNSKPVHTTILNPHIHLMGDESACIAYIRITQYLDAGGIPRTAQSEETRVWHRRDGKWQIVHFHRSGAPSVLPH
Structure (SMILES),inhibition [%]
C[C@@H]1O[C@@H](Oc2c(-c3cc(O)c(O)c(O)c3)oc3cc(O)cc(O)c3c2=O)[C@H](O)[C@H](O)[C@H]1O,5
O=C1Cc2cc(O)ccc2N1,2
CC1=CC(=O)[C@H]2C[C@@H]1C2(C)C,1
CCOCC(O)COc1ccc(NC(=O)CC[S+](C)C)cc1 (stereo not shown),-5
OC1COC(O)CO1 (stereo not shown),5
O=C(O)CCCc1c[nH]c2ccccc12,-7
CCCC(=O)O[C@]1(C(=O)COC(=O)CC)CC[C@H]2[C@@H]3CCC4=CC(=O)CC[C@]4(C)[C@H]3[C@@H](O)C[C@@]21C,0
CC(C)=CCC[C@](C)(O[C@@H]1O[C@H](CO[C@@H]2O[C@@H](CO)[C@H](O)[C@H]2O)[C@@H](O)[C@H](O)[C@H]1O)[C@H]1CC[C@]2(C)[C@@H]1[C@H](O)C[C@@H]1[C@@]3(C)CC[C@H](O)C(C)(C)[C@@H]3[C@@H](O)C[C@]12C,-8
CC(C)CCCC(C)CCCC(C)CCCCC(C)CCCC(C)CCCC(C)C (stereo not shown),-8
C=C(C)[C@@H]1CC=C(C)CC1,-2
O=C1Nc2ccc(Cl)cc2[C@@](C#CC2CC2)(C(F)(F)F)O1,-8
O=[N+]([O-])c1cn2c(n1)OC[C@@H](OCc1ccc(OC(F)(F)F)cc1)C2,-4
OC[C@H]1O[C@@](CO)(OC[C@@]2(O[C@H]3O[C@H](CO)[C@@H](O)[C@H](O)[C@H]3O)O[C@H](CO)[C@@H](O)[C@@H]2O)[C@@H](O)[C@@H]1O,-20
CC(=O)OC/C1=C\[C@H]2[C@@H](OC(=O)/C=C/c3ccccc3)[C@@H](C)C[C@]2(OC(C)=O)C(=O)/C(C)=C/[C@@H]2[C@H](CC1)C2(C)C,16
CC(C)C[C@@H](O)C(=O)O,-28
O=C(O)c1cccnc1Nc1cccc(C(F)(F)F)c1,1

# Block 2 — cell line: HaCaT; tested at: 100 µM; time: 36 h
SMILES,viability [%]
CCN(CC)CCNC(=O)c1ccc(NC(C)=O)cc1,79.9
CCC1(c2ccccc2)C(=O)NCNC1=O,78.5
COc1ccc(Cl)cc1C(=O)NCCc1ccc(S(=O)(=O)NC(=O)NC2CCCCC2)cc1,88.6
COc1ccc2cc1Oc1ccc(cc1)C[C@H]1c3c(cc4c(c3Oc3cc5c(cc3OC)CCN(C)[C@@H]5C2)OCO4)CCN1C,7.63
Nc1ccc(/N=N/c2ccccc2)c(N)n1,41.6
CC1CCc2cc(F)cc3c(=O)c(C(=O)O)cn1c23 (stereo not shown),89.3
Cc1onc(-c2ccccc2)c1-c1ccc(S(N)(=O)=O)cc1,76.4
CC1(C)O[C@@H]2C[C@H]3[C@@H]4CCC5=CC(=O)C=C[C@]5(C)[C@H]4[C@@H](O)C[C@]3(C)[C@]2(C(=O)CO)O1,96.7
CCC(=O)O[C@]1(C(=O)CCl)[C@@H](C)C[C@H]2[C@@H]3CCC4=CC(=O)C=C[C@]4(C)[C@@]3(F)[C@@H](O)C[C@@]21C,36.9
O=C(O)CSCC(=O)NC1CCSC1=O (stereo not shown),72.3
O=C(O)CN(CCN(CC(=O)O)CC(=O)O)CC(=O)O,92.1
NCCCNCCSP(=O)(O)O,97.2
Cc1ncc(CSSCc2cnc(C)c(O)c2CO)c(CO)c1O,112
Cc1nc(-c2ccc(OCC(C)C)c(C#N)c2)sc1C(=O)O,80

# Block 3 — observed: enzyme activity; mode: inhibitor; tested at: 0.5 µM; relative to: control
# Target: Beta-adrenergic receptor kinase 1 (GRK2, Homo sapiens, UniProt P25098)
# Target sequence (P25098 1-689): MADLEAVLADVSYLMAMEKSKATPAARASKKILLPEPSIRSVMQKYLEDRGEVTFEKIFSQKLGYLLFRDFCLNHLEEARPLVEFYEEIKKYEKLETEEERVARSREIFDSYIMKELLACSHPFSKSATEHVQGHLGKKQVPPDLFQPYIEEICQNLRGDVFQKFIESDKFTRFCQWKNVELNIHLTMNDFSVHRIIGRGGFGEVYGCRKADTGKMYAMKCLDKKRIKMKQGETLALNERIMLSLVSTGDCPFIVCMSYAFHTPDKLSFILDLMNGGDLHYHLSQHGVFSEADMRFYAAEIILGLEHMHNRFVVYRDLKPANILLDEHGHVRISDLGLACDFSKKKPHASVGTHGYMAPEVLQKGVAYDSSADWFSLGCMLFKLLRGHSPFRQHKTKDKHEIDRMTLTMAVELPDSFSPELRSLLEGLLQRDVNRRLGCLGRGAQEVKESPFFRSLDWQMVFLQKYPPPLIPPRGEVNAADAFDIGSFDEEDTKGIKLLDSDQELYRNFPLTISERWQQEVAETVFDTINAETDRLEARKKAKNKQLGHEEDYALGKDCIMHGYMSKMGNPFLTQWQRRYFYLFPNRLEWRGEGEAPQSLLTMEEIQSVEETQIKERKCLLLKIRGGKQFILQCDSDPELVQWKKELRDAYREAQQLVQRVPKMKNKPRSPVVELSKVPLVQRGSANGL
SMILES,remaining activity
O=Nc1c(-c2c(O)[nH]c3ccccc23)[nH]c2ccccc12,89.5%
FC(F)(F)c1ccc(/C=C/c2nc(COc3ccc(CCCCn4ccnn4)cc3)co2)cc1,113%
N#C/C(=C(/N)SC1C=CC=CC1)c1cccc(C(O)c2ccncc2)c1 (stereo not shown),110%
NC(=O)c1ccc(-c2nc(-c3ccc4c(c3)OCCO4)c(-c3ccccn3)[nH]2)cc1,98.9%
CC(C)(C)c1nc2c3cc[nH]c(=O)c3c3cc(F)ccc3c2[nH]1,98.5%
O=C1c2ccccc2-c2nc3nnnn3nc21,106%
CCN(CC)CCCCN1c2ccccc2Oc2ccc(Cl)cc21,96.5%
COc1cc2c(N3CCN(C(=O)Nc4ccc(OC(C)C)cc4)CC3)ncnc2cc1OCCCN1CCCCC1,98%
CNc1cc2c(Nc3cccc(Br)c3)ncnc2cn1,97%
COc1cc2c(Nc3ccc(Br)cc3F)ncnc2cc1OCC1CCN(C)CC1,92.2%
O=C(O)/C=C/c1cc(Br)c(Br)c(Br)c1Br,97.9%
c1cc(-c2cnn3cc(-c4ccc(OCCN5CCCCC5)cc4)cnc23)ccn1,81.8%
N#CC(c1ccnc(NCCc2cccnc2)n1)c1nc2ccccc2s1 (stereo not shown),103%
CC(C)N(CCC(=O)c1ccc2ccccc2c1)Cc1ccccc1,106%
O=c1c(-c2ccc(F)cc2)c(-c2ccncc2)[nH]n1-c1ccc(Cl)cc1,106%
Clc1ccc(Nc2nnc(Cc3ccncc3)c3ccccc23)cc1,102%
CC(C)n1cnc2c(Nc3cccc(Cl)c3)nc(NCCO)nc21,96%
CCCCc1c(-c2ccc(O)cc2)[nH]c2nccnc12,76.5%
NC(=O)c1cccc(-c2cc(Nc3ccc(OC(F)(F)F)cc3)ncn2)c1,96.1%
Nc1nc(Nc2ccc(S(N)(=O)=O)cc2)nn1C(=S)Nc1c(F)cccc1F,97.8%
C[C@@H](N)[C@H]1CC[C@H](C(=O)Nc2ccncc2)CC1,99.1%
O=C(c1ccccc1)c1ccc(N2CCOCC2)cc1O,99.6%
O=C1NC(=O)/C(=C/c2ccc3c(c2)OC(F)(F)O3)S1,103%

# Block 4 — method: competition with immobilised ligand; tested at: 1 µM
# SMILES: Cc1noc([C@H]2C[C@@H](c3ccc(C(F)(F)F)cc3)CN(C(=O)N3CCS(=O)(=O)C3)C2)n1
target,assay,remaining binding [%]
"RET (Homo sapiens, UniProt P07949, V804M)",cell-free assay,100
"STK38L (Homo sapiens, UniProt Q9Y2H1)",binding,100
"FLT4 (Homo sapiens, UniProt P35916)",cell-free assay,100
"TEC (Homo sapiens, UniProt P42680)",binding,100
"BRAF (Homo sapiens, UniProt P15056)",cell-free assay,97
"EPHB3 (Homo sapiens, UniProt P54753)",cell-free assay,100
"GSK3A (Homo sapiens, UniProt P49840)",cell-free assay,79
"EPHB6 (Homo sapiens, UniProt O15197)",cell-free assay,73
"BRAF (Homo sapiens, UniProt P15056, V600E)",cell-free assay,89
"MATK (Homo sapiens, UniProt P42679)",cell-free assay,100
"PIM1 (Homo sapiens, UniProt P11309)",cell-free assay,100
"TYRO3 (Homo sapiens, UniProt Q06418)",cell-free assay,100
"MAPK6 (Homo sapiens, UniProt Q16659)",cell-free assay,100
"PIK3CA (Homo sapiens, UniProt P42336, H1047L)",cell-free assay,100
"PLK3 (Homo sapiens, UniProt Q9H4B4)",cell-free assay,88
"LATS1 (Homo sapiens, UniProt O95835)",cell-free assay,100
"CDK7 (Homo sapiens, UniProt P50613)",cell-free assay,89

# A few entries again (block 3):
SMILES,remaining activity
C[C@@H](N)[C@H]1CC[C@H](C(=O)Nc2ccncc2)CC1,99.1%
CCCCc1c(-c2ccc(O)cc2)[nH]c2nccnc12,76.5%
Nc1nc(Nc2ccc(S(N)(=O)=O)cc2)nn1C(=S)Nc1c(F)cccc1F,97.8%
CC(C)n1cnc2c(Nc3cccc(Cl)c3)nc(NCCO)nc21,96%
N#CC(c1ccnc(NCCc2cccnc2)n1)c1nc2ccccc2s1 (stereo not shown),103%
O=Nc1c(-c2c(O)[nH]c3ccccc23)[nH]c2ccccc12,89.5%
O=C(c1ccccc1)c1ccc(N2CCOCC2)cc1O,99.6%
CC(C)N(CCC(=O)c1ccc2ccccc2c1)Cc1ccccc1,106%
O=C1NC(=O)/C(=C/c2ccc3c(c2)OC(F)(F)O3)S1,103%
NC(=O)c1ccc(-c2nc(-c3ccc4c(c3)OCCO4)c(-c3ccccn3)[nH]2)cc1,98.9%
O=c1c(-c2ccc(F)cc2)c(-c2ccncc2)[nH]n1-c1ccc(Cl)cc1,106%
COc1cc2c(Nc3ccc(Br)cc3F)ncnc2cc1OCC1CCN(C)CC1,92.2%
